Assay results collected from several papers.
Numbered parts are unrelated; each lists some results of a single study. Substitutions count along the parent as printed.
UniProt Q5BJF2, sequence (whole entry, looked up): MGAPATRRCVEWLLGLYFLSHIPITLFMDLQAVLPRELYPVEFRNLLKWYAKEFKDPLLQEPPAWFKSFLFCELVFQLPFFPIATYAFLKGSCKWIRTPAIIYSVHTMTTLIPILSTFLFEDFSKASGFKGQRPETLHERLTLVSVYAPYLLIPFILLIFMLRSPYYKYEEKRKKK
UniProt P14416, sequence (whole entry, looked up): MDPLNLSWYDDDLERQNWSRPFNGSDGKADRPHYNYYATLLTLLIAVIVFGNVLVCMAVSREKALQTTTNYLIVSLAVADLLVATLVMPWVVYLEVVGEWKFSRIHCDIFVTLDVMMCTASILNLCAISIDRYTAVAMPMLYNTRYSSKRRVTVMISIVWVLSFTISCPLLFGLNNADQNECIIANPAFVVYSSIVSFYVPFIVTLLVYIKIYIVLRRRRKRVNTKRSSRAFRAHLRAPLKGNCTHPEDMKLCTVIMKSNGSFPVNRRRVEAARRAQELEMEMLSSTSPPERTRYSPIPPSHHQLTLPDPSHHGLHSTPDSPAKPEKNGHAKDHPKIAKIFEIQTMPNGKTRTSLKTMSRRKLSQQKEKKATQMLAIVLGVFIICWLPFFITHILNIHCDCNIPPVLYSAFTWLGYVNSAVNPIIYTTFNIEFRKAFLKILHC
UniProt P08913, sequence (whole entry, looked up): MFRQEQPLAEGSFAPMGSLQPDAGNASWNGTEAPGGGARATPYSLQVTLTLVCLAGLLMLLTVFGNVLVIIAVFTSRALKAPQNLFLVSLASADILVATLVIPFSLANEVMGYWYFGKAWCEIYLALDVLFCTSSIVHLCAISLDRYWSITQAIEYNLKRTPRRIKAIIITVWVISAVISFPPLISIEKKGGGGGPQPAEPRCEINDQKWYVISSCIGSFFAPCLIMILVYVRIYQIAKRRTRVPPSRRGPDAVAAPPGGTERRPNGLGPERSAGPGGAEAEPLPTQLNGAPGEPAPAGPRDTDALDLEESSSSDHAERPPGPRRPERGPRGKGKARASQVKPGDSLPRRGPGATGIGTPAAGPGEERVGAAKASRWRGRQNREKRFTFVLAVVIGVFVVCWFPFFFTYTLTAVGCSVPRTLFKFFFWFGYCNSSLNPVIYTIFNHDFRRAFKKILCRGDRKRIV
UniProt P28222, sequence (whole entry, looked up): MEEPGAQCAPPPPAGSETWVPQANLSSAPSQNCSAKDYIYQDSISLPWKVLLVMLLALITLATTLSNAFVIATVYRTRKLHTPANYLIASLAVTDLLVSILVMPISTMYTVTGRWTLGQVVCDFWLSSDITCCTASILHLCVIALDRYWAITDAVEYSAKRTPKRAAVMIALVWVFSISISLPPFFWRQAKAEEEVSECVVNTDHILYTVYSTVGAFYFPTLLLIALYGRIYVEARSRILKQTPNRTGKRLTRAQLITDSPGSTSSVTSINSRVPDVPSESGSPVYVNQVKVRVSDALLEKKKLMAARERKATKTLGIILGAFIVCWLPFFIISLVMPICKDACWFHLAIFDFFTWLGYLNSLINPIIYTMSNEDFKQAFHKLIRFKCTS
UniProt P35462, sequence (whole entry, looked up): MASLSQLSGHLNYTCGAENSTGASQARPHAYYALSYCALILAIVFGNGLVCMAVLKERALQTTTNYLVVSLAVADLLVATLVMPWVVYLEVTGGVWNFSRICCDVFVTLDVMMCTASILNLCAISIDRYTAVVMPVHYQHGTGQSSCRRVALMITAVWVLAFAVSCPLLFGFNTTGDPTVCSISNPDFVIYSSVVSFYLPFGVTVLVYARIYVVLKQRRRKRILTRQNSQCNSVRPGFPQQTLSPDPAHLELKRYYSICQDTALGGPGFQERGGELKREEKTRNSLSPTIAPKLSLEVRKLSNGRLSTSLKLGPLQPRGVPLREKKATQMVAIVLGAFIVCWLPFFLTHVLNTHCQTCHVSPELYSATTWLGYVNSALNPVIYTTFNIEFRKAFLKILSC
UniProt P35348, sequence (whole entry, looked up): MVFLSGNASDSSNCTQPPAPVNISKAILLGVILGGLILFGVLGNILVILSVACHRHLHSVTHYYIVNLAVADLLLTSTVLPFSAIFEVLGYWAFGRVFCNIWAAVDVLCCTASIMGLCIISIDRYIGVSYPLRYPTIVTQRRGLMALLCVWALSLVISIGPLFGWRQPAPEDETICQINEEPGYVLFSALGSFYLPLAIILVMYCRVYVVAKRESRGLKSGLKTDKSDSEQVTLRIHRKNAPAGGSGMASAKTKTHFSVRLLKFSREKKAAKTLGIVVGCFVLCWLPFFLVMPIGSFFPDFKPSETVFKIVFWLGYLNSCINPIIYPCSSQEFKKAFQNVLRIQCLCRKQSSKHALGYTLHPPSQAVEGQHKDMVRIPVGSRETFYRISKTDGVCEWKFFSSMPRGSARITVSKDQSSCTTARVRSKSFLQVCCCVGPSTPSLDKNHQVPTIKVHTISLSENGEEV

Study 1
Variant: F124S
Target: ABI1, truncated, D143A, DHFR fusion (Arabidopsis thaliana)
Method: DHFR PCA, deep sequencing
Sample: yeast
Notes: methotrexate growth selection, single substitutions
Baseline: wild-type fitted maximum
Direction: higher = stronger binding
Quantity: relative binding score
Starting sequence: PYL1, truncated, DHFR fusion (Arabidopsis thaliana); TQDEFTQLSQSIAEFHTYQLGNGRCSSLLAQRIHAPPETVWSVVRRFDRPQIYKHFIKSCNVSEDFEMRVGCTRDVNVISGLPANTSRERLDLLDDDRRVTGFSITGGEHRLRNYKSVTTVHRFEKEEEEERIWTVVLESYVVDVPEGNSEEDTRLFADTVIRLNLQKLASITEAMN; partner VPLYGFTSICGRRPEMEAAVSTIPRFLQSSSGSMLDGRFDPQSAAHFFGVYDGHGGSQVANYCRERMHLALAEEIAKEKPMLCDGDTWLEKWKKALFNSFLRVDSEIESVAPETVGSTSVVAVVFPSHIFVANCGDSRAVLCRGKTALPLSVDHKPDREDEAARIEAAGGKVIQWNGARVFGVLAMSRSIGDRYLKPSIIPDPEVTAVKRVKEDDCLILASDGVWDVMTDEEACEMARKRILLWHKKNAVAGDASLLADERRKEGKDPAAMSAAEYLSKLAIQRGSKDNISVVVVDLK
with: (+)-ABA 0.11 µM: 4.81%
with: (+)-ABA 0.032 µM: 2.9%
with: (+)-ABA 0.39 µM: 11.6%
with: (+)-ABA 0.0091 µM: -0.12%
with: (+)-ABA 2500 µM: 102%
with: (+)-ABA 1.4 µM: 24.7%

Study 2
Target: Myosin light chain kinase, smooth muscle (MYLK, Homo sapiens, UniProt Q15746)
UniProt Q15746, sequence (whole entry, looked up): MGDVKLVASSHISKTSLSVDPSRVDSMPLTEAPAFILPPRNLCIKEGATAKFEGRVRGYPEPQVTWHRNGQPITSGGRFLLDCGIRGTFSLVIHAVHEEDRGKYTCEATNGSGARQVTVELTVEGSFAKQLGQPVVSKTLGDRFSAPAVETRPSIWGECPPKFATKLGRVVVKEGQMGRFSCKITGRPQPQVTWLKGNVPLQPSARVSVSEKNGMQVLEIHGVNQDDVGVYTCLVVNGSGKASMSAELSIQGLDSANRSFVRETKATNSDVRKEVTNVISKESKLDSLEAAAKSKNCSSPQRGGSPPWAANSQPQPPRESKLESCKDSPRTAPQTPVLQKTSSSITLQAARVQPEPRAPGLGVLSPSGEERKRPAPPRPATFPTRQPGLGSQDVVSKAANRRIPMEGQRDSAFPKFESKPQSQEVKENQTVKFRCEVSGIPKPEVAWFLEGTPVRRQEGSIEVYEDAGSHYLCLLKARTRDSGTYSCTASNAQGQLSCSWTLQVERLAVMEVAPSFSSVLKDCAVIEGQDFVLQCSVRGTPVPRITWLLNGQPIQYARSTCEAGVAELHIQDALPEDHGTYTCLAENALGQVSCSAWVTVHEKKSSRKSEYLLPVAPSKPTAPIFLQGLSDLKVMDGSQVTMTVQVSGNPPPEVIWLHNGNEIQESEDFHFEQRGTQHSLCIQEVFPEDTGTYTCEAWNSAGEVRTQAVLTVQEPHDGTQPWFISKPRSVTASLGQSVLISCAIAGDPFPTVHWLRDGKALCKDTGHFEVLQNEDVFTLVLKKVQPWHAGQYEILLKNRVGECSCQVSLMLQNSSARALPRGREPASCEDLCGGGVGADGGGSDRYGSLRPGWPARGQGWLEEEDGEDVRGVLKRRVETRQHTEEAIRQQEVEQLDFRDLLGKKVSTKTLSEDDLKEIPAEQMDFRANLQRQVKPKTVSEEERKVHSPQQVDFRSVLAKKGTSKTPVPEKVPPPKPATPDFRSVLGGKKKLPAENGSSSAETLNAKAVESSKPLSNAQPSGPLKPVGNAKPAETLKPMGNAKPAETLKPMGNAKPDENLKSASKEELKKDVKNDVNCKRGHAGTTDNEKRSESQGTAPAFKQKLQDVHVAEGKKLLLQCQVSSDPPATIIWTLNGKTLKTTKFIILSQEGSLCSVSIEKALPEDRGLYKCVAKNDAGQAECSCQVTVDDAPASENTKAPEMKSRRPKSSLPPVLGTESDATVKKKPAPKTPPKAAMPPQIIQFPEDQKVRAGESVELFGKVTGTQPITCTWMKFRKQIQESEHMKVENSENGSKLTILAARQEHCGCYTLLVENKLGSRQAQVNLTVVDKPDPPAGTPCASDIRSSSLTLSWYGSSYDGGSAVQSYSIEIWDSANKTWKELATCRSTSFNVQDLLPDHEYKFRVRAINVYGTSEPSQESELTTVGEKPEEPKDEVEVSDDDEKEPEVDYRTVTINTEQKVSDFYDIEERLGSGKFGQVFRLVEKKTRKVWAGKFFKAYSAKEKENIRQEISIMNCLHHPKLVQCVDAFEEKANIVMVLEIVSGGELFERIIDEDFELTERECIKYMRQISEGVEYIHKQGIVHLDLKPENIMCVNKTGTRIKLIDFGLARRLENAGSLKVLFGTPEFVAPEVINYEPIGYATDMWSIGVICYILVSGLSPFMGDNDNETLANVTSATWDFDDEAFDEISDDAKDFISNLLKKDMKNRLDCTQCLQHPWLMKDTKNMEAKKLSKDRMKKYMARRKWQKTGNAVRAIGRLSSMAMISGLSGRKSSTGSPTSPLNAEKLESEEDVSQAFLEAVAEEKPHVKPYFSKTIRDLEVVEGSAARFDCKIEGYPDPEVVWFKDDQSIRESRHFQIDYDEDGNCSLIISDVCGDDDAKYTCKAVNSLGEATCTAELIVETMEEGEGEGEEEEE
Read-out: enzyme activity
Mode: inhibitor
Concentration: 0.5 µM
Baseline: control
Quantity: remaining activity
Cc1nc(-c2ccccc2)c(-c2ccncc2)o1: 101%
Cc1cccc(-c2[nH]c(C(C)(C)C)nc2-c2ccc3c(c2)OCO3)n1: 105%
Nc1[nH]nc2nc3ccccc3nc12: 93.6%
O=C(CCCc1ccc(-c2ccccc2F)cc1)Nc1ccc(O)cc1: 98.6%
Cc1ccc(Nc2nccc(N(C)c3ccc4c(C)n(C)nc4c3)n2)cc1S(N)(=O)=O: 93%
COc1cc2ncnc(Nc3ccc(Oc4ccccc4)cc3)c2cc1OC: 105%
O=C1NC(=O)C(c2cn(CCCn3ccnc3)c3ccccc23)=C1Nc1ccccc1: 81.6%
O=S(=O)(c1cccc2cnccc12)N1CCCNCC1: 97.4%
CNC(=O)c1cc(Oc2ccc(NC(=O)Nc3ccc(Cl)c(C(F)(F)F)c3)cc2)ccn1: 93.7%
Nc1ccc2ncnc(NCCc3ccc(Oc4ccccc4)cc3)c2c1: 98.5%
O=C(Nc1cccc(Nc2cc(Nc3cccc(C(F)(F)F)c3)ncn2)c1)C1CC1: 99%
COc1cc2ncnc(Nc3ccc(F)c(Cl)c3)c2cc1OCCCN1CCOCC1: 89.7%
Cc1ccc(NC(=O)c2ccc(CN3CCN(C)CC3)cc2)cc1Nc1nc(-c2cccnc2)cs1: 96.2%
CCOC(=O)c1c(C)[nH]c(/C=C2\C(=O)Nc3ccccc32)c1C: 94.8%
COc1ccc(OC)c2c(=S)c3ccccc3[nH]c12: 89.8%

Study 3
Compound: CNC(=O)c1cc(C(=O)N[C@H]2[C@@H]3COC[C@@H]32)cc2c1O[C@H](CF)[C@H]2c1ccccc1
Read-out: binding
Method: radioligand binding
Concentration: 10 µM
Quantity: inhibition
Beta-2 adrenergic receptor (ADRB2, Homo sapiens, UniProt P07550): 17.9%
D(3) dopamine receptor (DRD3, Homo sapiens, UniProt P35462): 81.8%
Alpha-2A adrenergic receptor (ADRA2A, Homo sapiens, UniProt P08913): 1.67%
Sigma non-opioid intracellular receptor 1 (SIGMAR1, Homo sapiens, UniProt Q99720): 28.4%
Alpha-1A adrenergic receptor (ADRA1A, Homo sapiens, UniProt P35348): -4.55%
Sigma intracellular receptor 2 (TMEM97, Homo sapiens, UniProt Q5BJF2): 14.3%
D(2) dopamine receptor (DRD2, Homo sapiens, UniProt P14416): 60.9%
5-hydroxytryptamine receptor 1B (HTR1B, Homo sapiens, UniProt P28222): -0.1%

Study 4
Target: PABPC1L2, full length, GST fusion (mouse, UniProt A0ABA7IW68)
Method: RNAcompete
Form: RNA
Sample: in vitro
Concentration: 20 nM
Notes: 7-mer, probes averaged, single round
Baseline: mean of 7-mers
Direction: higher = stronger binding
Quantity: 7-mer Z-score
Target sequence (chain): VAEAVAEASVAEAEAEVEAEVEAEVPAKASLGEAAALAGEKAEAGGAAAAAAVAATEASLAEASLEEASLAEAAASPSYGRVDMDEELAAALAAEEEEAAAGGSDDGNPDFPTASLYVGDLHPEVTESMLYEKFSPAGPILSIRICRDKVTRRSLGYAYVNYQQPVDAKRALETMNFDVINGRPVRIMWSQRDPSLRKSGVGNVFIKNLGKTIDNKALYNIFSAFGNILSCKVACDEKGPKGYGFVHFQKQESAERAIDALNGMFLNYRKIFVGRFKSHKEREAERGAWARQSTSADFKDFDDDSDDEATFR
AAUAGAG: 0.595
CAAGGUG: 0.0515
AGAACUA: -0.021
GAAGCAC: -0.0301
UUGACCG: -0.115
CAUUUUU: -0.168
AGCUGUA: 0.00798
CCUUACC: -0.347

Some of these lines once more (study 3):
Sigma intracellular receptor 2 (TMEM97, Homo sapiens, UniProt Q5BJF2): 14.3%
Alpha-1A adrenergic receptor (ADRA1A, Homo sapiens, UniProt P35348): -4.55%
D(3) dopamine receptor (DRD3, Homo sapiens, UniProt P35462): 81.8%
Sigma non-opioid intracellular receptor 1 (SIGMAR1, Homo sapiens, UniProt Q99720): 28.4%
Alpha-2A adrenergic receptor (ADRA2A, Homo sapiens, UniProt P08913): 1.67%
5-hydroxytryptamine receptor 1B (HTR1B, Homo sapiens, UniProt P28222): -0.1%
